Published values pooled from the literature.
Numbered parts are unrelated; each lists some results of a single study. Positions count from the first letter of the parent shown.
UniProt O14933, sequence (whole entry, looked up): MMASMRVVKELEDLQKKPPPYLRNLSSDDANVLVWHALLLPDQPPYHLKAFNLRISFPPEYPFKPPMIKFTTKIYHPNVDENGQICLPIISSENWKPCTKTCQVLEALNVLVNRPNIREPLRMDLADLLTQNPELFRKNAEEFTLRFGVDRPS
UniProt P49427, sequence (whole entry, looked up): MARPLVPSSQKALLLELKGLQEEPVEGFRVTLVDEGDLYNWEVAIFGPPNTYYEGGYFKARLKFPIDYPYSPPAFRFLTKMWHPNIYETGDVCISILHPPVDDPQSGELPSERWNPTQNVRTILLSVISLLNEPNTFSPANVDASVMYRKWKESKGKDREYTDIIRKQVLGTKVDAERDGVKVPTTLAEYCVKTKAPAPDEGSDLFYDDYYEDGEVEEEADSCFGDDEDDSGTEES
UniProt P51965, sequence (whole entry, looked up): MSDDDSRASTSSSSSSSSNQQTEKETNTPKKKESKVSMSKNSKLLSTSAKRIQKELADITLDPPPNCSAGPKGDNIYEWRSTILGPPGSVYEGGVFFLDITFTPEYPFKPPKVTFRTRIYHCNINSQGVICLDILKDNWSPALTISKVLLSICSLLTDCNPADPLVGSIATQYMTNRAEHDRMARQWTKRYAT
UniProt Q5VVX9, sequence (whole entry, looked up): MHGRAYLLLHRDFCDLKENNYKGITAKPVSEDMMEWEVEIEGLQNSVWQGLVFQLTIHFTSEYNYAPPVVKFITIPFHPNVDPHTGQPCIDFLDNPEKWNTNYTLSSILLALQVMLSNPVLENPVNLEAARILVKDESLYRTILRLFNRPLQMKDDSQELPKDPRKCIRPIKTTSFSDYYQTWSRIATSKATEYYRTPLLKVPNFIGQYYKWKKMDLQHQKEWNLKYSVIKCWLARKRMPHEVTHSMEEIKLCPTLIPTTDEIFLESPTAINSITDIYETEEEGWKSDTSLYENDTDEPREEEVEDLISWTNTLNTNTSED
UniProt P60604, sequence (whole entry, looked up): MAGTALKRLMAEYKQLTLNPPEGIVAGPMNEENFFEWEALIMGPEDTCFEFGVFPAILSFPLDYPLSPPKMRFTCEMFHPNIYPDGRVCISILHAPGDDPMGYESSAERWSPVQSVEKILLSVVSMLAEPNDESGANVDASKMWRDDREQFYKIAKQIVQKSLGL
UniProt P61088, sequence (whole entry, looked up): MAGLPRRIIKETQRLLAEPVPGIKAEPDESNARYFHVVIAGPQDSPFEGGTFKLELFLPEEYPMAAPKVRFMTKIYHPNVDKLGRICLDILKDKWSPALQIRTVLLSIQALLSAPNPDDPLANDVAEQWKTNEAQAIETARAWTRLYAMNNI
UniProt Q13404, sequence (whole entry, looked up): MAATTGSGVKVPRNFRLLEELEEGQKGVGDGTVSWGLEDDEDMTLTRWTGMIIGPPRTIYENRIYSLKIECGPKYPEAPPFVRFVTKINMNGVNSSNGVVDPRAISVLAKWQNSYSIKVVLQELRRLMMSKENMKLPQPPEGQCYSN
UniProt Q8WVN8, sequence (whole entry, looked up): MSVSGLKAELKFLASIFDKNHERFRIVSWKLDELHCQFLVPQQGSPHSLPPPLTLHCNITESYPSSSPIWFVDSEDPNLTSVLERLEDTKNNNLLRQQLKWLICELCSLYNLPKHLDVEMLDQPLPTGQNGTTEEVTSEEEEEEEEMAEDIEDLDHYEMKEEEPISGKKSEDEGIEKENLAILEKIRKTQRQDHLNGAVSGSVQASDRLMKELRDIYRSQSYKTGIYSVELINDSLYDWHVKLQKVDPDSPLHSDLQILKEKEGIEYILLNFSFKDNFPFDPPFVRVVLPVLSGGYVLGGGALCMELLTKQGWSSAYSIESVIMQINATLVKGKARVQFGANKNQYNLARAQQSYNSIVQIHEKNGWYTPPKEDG
UniProt Q15819, sequence (whole entry, looked up): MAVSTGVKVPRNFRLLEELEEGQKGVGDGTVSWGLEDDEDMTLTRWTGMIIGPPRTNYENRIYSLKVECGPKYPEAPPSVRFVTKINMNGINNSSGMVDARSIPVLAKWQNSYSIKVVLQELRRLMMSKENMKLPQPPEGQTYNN
UniProt Q96LR5, sequence (whole entry, looked up): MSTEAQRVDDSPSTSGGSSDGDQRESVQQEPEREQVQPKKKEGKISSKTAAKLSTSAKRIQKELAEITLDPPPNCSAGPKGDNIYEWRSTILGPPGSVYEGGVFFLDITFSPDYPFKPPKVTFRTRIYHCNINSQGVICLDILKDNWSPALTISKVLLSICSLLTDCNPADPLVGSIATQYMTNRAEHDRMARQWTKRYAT
UniProt P62256, sequence (whole entry, looked up): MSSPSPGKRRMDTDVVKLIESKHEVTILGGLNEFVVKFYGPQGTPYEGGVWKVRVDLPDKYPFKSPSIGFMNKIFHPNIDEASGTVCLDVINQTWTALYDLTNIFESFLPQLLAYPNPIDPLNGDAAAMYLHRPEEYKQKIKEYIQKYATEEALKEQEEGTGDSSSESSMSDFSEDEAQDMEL

Set 1
Target: RING finger protein unkempt homolog, zinc fingers 1-6, GST-SBP tag (UNK, Homo sapiens, UniProt Q9C0B0, residues 30-357)
Technique: RNA Bind-n-Seq
Molecule type: RNA
Matrix: in vitro
Tested at: not given
Setting: RNA with constant flanks, human and mouse sites, ends assumed
Reference: input RNA pool
Direction: higher = stronger binding
Construct (chain): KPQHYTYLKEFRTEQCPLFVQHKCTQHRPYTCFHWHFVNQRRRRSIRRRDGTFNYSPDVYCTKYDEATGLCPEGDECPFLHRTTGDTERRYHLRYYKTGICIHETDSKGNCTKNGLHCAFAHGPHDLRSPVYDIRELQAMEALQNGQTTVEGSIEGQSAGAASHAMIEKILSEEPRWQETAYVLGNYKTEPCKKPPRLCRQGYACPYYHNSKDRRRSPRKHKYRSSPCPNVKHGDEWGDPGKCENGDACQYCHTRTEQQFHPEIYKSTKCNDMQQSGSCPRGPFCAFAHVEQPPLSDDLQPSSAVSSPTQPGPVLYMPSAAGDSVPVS
| Strand | bound/input enrichment [ratio] |
| --- | --- |
| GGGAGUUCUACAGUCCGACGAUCGAGUCUCAUUGGGAAGAAAAUAGAAAUGAAAAUUCAGGAAAUUCUUGGAAUAAAAACUUUGGUUCUGGUUGGGUAUCUAACCGUGGUAGAGGCAGAGGCAACCGUGGCAGAGGCACUUACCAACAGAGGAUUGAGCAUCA | 1.18 |
| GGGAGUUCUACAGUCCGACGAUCCUUGACCUCAGGCCUACCUCUGCCUUCCAAGUGCCAGGAUUAAAGGCGUGUGCCACCAUCACUCAGUUGCACAGUUCUUAAAUAUAAAGUGUGAACAUGUAUUUCUUUGAAAGAAAUAUUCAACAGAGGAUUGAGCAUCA | 0.0877 |
| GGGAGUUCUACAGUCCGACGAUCGGAAGACCGAGCCCUCUUACUUCGAAUUAUGGAAAGCAUUGAAGACUUUGCUCAAGAGCUAGUUGAAUGCAAGUCAGGCAGAGGGAGCCUAUCACAAGAAAAGGAAAUGAUGCAAAUUCUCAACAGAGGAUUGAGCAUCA | 1.05 |
| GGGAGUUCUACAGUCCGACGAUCAAGACGAAGCUGGACACUCUAGCCACUGGUCAUCUCUUCCAGGAAGUGAGGUGCAUGAAACUAGUGCAGCACCCCAACAUUGUGCGUCUCUAUGAAGUCAUAGACACCCAGACCAAACUUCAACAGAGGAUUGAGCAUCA | 0.119 |
| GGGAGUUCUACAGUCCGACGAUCACACAUCCUACCUUUGAUGAGUCUCACAUCCCACCUUCCUAUAAACAGCUAAAUUAAUUUUGUUUCAUCUUCCCCAGACCAAAAUGUUUGAUAAUCUUAUCAACAUUGUGGGAGGUCUUGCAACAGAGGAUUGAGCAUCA | 0.225 |
| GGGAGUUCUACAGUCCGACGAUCGGUGGCCAGAACCCAGGGACCAUUGGAUUUCAAAGCUUGCUUUUUCUGUUGGUUCUUCUCUCUCCUUCUCUCUCUGUCUCUCCCAUUCUCCUGCCCAUGCAUGAAAGGAUCCUCCACCUUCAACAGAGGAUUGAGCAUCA | 0.245 |
| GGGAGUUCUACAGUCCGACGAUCGGUUUUCAUGGAGACUGUCUUACGCUGACAAAGAUUAUUGAAGCAAGACUAAAGAUGUAUAAGCAUUCCAAUAAUAAGGCCAUGACUACGGGGGCAAUUGCUGCAAUGCUGUCUACAAUCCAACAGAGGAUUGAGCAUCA | 0.245 |
| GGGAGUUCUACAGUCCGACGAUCGCAUGCUGGGAACGCUAGCCCUUCCGGGGCGCCUCCGGGCCUCAGGUUCUGGCGUCUCGGCGGAUGCCCAAAGACUCCGCCUUCCCAGGGGCCCCCGCGGCCCUGCGAAGAUGGCGGCGACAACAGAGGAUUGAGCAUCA | 0.0873 |
| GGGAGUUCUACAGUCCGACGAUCAAAAGAGAAAAUGGUGCUAGAGACAAGUAGUUUAUUUAGUAAGCAGUGUUUUUAUUCCUUAGUUAGAUUUUAAGCUGCUUUUUGUCUUCAGAAGCUUUUAAAAAGAAAAGCGAAUUAGGUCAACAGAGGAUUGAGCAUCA | 9.04 |
| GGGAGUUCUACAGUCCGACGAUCUUGGAUGGCCUAUCAUGUAUCCUCAACUUUCUAAAGACCAUGGACUACGAGACCUCAGAGUCUCGAAUACAUACUUCUCUCAUUGGCUGUAUAAAGGCGUUAAUGAACAACUCUCAAGGCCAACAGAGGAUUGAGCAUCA | 0.0943 |
| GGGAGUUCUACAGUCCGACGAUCCCUCCUCCAUCGAGGGAGAGGCCUGAAGGGACUGCCUACUGCAGCUCGUUGCCAAUCACAUAGCUUUCUAUUUGUUAAGUAUAAAUUUAAAUUUAAAAUCACUUUUUUAACGAAUGGGGGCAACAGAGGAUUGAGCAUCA | 0.563 |

Set 2
Target: ATF5, bZIP domain (human)
Technique: DHFR protein complementation
Matrix: yeast
Setting: single substitutions, most at no-binding floor
Reference: wild-type JUN-FOS pair
Direction: higher = stronger binding
Parent: JUN, bZIP domain (human); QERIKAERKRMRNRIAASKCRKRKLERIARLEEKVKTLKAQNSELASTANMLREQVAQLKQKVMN; partner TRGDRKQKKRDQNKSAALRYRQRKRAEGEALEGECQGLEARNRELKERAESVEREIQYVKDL
| Substitution | binding fitness |
| --- | --- |
| I28F | -1.54 natural log |
| A29D | -1.5 natural log |
| T37K | -1.35 natural log |
| I28P | -1.42 natural log |
| L45Y | -1.47 natural log |
| A57I | -1.16 natural log |
| A46Q | -1.15 natural log |
| V56A | -1.32 natural log |
| Q41V | -1.29 natural log |
| E54P | -1.34 natural log |
| V35Y | -1.59 natural log |
| A57H | -1.54 natural log |
| E54H | -1.5 natural log |
| L38R | -1.52 natural log |
| K39C | -1.53 natural log |
| T37H | -1.47 natural log |
| I28A | -1.55 natural log |
| E44G | -1.52 natural log |
| L31A | -1.42 natural log |
| A29C | -1.34 natural log |

Set 3
Molecule: ANYISAHTKDCPKCNICIEKNGGCNHMQCSKCKHDFCWMCLGDWKTHGSE (ARIH2 RING domain (UniProt O95376))
Technique: yeast two-hybrid
Molecule type: peptide
Matrix: yeast
Setting: mostly zero background
Reference: not given
Direction: higher = stronger interaction
| target | lacZ reporter activity |
| --- | --- |
| UBE2E1 UBC core domain (UniProt P51965) | 0 |
| CDC34 UBC core domain (UniProt P49427) | 0 |
| UBE2E2 UBC core domain (UniProt Q96LR5) | 0 |
| UBE2U UBC core domain (UniProt Q5VVX9) | 14000 |
| UBE2G2 UBC core domain (UniProt P60604) | 0 |
| UBE2V2 UBC core domain (UniProt Q15819) | 0 |
| UBE2Q2 UBC core domain (UniProt Q8WVN8) | 0 |
| UBE2L6 UBC core domain (UniProt O14933) | 0 |
| UBE2H UBC core domain (UniProt P62256) | 0 |
| UBE2N UBC core domain (UniProt P61088) | 0 |
| UBE2V1 UBC core domain (UniProt Q13404) | 0 |

Set 4
Target: CCNB1, cyclin fold, Cln2 fusion (human)
Technique: yeast growth competition, sequencing
Matrix: yeast
Setting: weak parent motif
Reference: not given
Direction: higher = stronger binding
Parent: EXO1 docking peptide (human); KPECGRVQRAIFQ
| Substitution | normalised enrichment score |
| --- | --- |
| KPECGRVQRAIAQ [F12A] | 0.265 |
| KPEAGRVQRAIFQ [C4A] | 0.133 |
| KAECGRVQRAIFQ [P2A] | 0.366 |
| APECGRVQRAIFQ [K1A] | 0.128 |
| KPECGRVARAIFQ [Q8A] | 0.178 |
| KPECGRAQRAIFQ [V7A] | 0.44 |

Set 5
Target: ABI1, truncated, D143A, DHFR fusion (Arabidopsis thaliana)
Technique: DHFR PCA, deep sequencing
Matrix: yeast
Setting: methotrexate growth selection, single substitutions
With: (+)-ABA 58 µM
Reference: wild-type fitted maximum
Direction: higher = stronger binding
Parent: PYL1, truncated, DHFR fusion (Arabidopsis thaliana); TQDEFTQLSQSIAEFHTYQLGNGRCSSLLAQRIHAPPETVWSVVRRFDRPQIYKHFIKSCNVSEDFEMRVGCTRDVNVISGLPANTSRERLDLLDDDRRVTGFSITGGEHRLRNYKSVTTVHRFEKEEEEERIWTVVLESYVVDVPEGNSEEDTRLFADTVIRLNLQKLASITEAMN
| Substitution | relative binding score [%] |
| --- | --- |
| R45T | 7.9 |
| S27I | -4.61 |
| I133A | 96.7 |
| P146A | 71.1 |
| A84L | 7.3 |
| E139P | -2.27 |
| E152G | 77.1 |
| R99S | 45.1 |
| N85G | 79.3 |
| M176N | 81.9 |
| L93F | 91.9 |
| P50V | 18.3 |
| S150C | 78.3 |
| E151H | 76.3 |
| I33N | -17.7 |
| E4R | 74.1 |
| T154C | 80.8 |
| T120G | 6.1 |
| H122A | 23.6 |
| T119N | 12.3 |
| S42A | 89.3 |
| E127T | 94.8 |
| S104M | 26.3 |
| A170S | 70.6 |

Set 6
Target: Centromere-binding protein 1, full length, His-tagged (CBF1, Saccharomyces cerevisiae, UniProt P17106, residues 1-351)
UniProt P17106, sequence (whole entry, looked up): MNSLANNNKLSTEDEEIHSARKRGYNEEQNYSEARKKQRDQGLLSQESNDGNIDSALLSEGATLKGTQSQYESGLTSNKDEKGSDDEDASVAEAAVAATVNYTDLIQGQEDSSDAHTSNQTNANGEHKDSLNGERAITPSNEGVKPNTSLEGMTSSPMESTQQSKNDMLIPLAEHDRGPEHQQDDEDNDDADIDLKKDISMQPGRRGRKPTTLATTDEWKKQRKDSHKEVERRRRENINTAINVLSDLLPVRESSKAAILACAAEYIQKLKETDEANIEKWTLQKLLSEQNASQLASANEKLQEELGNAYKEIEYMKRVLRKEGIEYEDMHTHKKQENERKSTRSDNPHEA
Technique: competition protein-binding microarray
Molecule type: double-stranded DNA, one strand shown
Matrix: in vitro
Tested at: 2 µM
Setting: whole 60-bp probe, lowest competitor level
With: Pho4 competitor, 0.05 µM
Direction: higher = stronger binding
| Strand | fluorescence intensity [a.u.] |
| --- | --- |
| AGAGGCCCCAGGAGCAACGTGATGGTATAACTGCCCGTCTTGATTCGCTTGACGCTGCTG | 178 |
| GTTTGGTCCTATCAACATGTGCCGAGAATTGTCGGAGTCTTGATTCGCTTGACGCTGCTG | 245 |
| TGGTAGTAACCAAAGCACGCTTGTCCTTGTGTTCGGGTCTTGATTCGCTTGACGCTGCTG | 63.8 |
| CATACCCAACCTTGTCACCATACTTAAGATATTTGTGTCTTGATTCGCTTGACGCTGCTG | 86.9 |
| ATATATCATTGGTTCCACGTTCACTTCCCTTATTACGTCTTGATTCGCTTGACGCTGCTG | 107 |
| GTCTTGTCTCATTGTGCAGTGGGTGTCCCCACTTCAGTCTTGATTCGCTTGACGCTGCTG | 69.3 |
| TGCGCAACAACTTGTAAGGTGGGTGTATGTCTAGAAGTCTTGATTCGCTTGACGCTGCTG | 72.3 |
| AAAGCGGTAATTTTTCACGTGCGGTCAAATATCTATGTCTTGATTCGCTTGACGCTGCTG | 1360 |
| ATGTACAGCGGTACCCTCGTGTTTTCTGCAGCGAGAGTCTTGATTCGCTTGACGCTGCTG | 85 |
| CGGGGTTAAGTTTGACCCGTGGGTGGCTTGCAGCAGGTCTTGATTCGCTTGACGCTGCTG | 81.8 |
| TGGGATAATATCTTCCACGTGATGGTTGAACAACCAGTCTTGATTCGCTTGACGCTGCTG | 3050 |
| TGCGCAACAACTTGTCACGGAACTTTATGTCTAGAAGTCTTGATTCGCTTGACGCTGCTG | 97.6 |
| CTTGCCAGGTACCATCACGCACGGCATGTTTTCTTCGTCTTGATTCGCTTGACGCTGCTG | 80.7 |
| AAATTACTAAGTTGTCTCGTGGGTGACGCCGTATGAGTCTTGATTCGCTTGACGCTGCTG | 103 |
| CATACCCAACCTTGCAACGTGGGTGAAGATATTTGTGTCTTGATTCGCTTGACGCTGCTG | 98.7 |
| TGCGCAACAACTTGAGGGGTGGGTGTATGTCTAGAAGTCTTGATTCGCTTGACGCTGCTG | 67.8 |

Set 7
Target: Histone acetyltransferase KAT6A, winged helix 2, GST fusion (KAT6A, Homo sapiens, UniProt Q92794, residues 85-181)
Technique: protein binding microarray
Molecule type: double-stranded DNA, one strand shown
Matrix: in vitro
Tested at: not given
Setting: 8-mer, flanks averaged, mean of 2 arrays, mostly near background
Reference: not given
Direction: higher = stronger binding
Residues (chain): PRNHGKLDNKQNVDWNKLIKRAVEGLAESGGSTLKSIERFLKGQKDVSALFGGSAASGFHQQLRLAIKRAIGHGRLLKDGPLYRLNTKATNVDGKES
| Strand | E-score |
| --- | --- |
| AACCCTAC | -0.187 |
| AAGCAATA | -0.112 |
| GTGGTGAA | -0.0131 |
| ACTCCCTG | -0.0165 |
| CAAATCAC | -0.0114 |
| GGGTGCAA | 0.1 |
| ACCTTTCA | -0.0546 |
| ACGATTGA | -0.155 |
| ACAGGATC | -0.114 |
| AGTGAGTC | -0.0549 |
| CCAAATAC | -0.0567 |
| CAAGTCGA | 0.0146 |
| GCTGATTA | 0.149 |
| TTAAGTAA | -0.0504 |
| CACTGAAG | 0.0826 |
| CGATCCGC | 0.14 |
| TGCTGGAA | 0.127 |

A few entries again (set 5):
| Substitution | relative binding score [%] |
| --- | --- |
| I133A | 96.7 |
| E152G | 77.1 |
| R45T | 7.9 |
| N85G | 79.3 |
| E4R | 74.1 |
| L93F | 91.9 |
